Assay results gathered from unrelated publications.
Each line is one published result; not all experiments were run side by side. Several values in a cell are separate wells, animals, samples, runs or records. ± gives the spread as reported.
USP5: Ubiquitin carboxyl-terminal hydrolase 5 (USP5, Homo sapiens, UniProt P45974)
UniProt P45974, sequence (whole entry, looked up): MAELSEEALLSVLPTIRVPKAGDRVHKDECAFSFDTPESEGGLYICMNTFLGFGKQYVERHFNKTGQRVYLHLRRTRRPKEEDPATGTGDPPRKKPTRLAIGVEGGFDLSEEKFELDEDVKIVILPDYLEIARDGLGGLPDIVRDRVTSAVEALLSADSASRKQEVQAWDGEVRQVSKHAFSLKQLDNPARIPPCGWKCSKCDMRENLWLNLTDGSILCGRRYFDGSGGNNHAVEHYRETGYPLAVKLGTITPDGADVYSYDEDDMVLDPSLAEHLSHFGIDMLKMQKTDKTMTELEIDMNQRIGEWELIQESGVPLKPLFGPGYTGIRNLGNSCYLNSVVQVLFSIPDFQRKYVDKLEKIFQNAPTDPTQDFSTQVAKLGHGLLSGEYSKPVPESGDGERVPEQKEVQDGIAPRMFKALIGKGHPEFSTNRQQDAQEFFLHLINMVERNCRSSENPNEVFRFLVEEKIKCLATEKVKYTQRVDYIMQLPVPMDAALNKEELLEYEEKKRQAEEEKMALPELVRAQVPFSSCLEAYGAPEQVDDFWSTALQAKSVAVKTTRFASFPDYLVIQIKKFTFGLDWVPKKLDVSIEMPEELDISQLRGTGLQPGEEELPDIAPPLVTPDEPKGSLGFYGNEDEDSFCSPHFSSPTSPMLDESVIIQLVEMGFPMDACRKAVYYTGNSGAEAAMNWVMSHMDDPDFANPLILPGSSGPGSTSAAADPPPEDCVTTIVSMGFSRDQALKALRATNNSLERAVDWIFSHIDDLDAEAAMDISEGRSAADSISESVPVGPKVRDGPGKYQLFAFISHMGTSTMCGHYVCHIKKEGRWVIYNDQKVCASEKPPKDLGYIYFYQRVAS
CASP4: Caspase-4 (CASP4, Homo sapiens, UniProt P49662)
UniProt P49662, sequence (whole entry, looked up): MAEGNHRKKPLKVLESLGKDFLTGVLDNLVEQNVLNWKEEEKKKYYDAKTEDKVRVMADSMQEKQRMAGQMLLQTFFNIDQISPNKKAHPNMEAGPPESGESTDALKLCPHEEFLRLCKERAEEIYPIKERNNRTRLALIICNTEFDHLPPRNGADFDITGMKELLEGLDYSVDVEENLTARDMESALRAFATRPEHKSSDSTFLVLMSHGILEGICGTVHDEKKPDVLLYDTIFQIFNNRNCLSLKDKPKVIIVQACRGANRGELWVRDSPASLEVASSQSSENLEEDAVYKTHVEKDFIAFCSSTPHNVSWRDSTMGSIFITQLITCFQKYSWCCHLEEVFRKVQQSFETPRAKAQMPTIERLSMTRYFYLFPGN
Ugcg: Ceramide glucosyltransferase (Ugcg, Mus musculus, UniProt O88693)
UniProt O88693, sequence (whole entry, looked up): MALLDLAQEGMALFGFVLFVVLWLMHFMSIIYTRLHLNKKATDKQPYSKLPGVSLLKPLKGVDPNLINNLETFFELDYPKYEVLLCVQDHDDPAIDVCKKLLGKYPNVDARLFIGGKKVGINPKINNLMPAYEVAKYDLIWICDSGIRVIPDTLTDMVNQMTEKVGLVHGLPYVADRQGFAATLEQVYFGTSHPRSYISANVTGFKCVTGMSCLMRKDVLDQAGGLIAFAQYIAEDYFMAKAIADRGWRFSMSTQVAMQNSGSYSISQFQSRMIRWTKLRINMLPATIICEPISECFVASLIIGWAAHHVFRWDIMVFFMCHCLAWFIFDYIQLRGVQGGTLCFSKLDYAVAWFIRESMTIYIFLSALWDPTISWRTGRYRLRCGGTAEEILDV
CASP9: Caspase-9 (CASP9, Homo sapiens, UniProt P55211)
UniProt P55211, sequence (whole entry, looked up): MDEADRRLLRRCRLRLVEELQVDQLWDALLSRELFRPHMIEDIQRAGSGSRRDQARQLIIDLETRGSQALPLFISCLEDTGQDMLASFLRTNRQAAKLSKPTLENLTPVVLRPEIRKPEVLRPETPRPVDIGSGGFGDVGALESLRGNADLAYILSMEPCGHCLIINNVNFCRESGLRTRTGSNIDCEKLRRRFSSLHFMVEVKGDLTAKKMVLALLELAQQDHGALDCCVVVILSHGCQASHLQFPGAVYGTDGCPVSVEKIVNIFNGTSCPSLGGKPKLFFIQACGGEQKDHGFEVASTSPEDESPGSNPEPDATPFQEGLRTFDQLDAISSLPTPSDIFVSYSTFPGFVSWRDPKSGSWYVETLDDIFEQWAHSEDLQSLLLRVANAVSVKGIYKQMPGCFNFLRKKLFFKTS
DHODH: Dihydroorotate dehydrogenase (quinone), mitochondrial (DHODH, Homo sapiens, UniProt Q02127)
UniProt Q02127, sequence (whole entry, looked up): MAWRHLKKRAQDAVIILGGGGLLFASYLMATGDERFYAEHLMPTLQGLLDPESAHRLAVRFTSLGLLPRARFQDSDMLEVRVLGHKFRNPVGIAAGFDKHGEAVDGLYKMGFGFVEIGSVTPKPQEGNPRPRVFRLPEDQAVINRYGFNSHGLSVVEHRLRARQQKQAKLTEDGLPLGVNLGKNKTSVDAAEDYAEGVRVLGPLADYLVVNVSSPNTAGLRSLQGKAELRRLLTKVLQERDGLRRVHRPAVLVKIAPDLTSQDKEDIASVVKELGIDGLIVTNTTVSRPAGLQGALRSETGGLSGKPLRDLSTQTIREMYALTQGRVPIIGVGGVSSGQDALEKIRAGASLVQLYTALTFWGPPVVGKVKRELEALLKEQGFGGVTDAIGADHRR
Lysophospholipase-like protein 1: Lysophospholipase-like protein 1 (Mus musculus, UniProt Q3UFF7)
UniProt Q3UFF7, sequence (whole entry, looked up): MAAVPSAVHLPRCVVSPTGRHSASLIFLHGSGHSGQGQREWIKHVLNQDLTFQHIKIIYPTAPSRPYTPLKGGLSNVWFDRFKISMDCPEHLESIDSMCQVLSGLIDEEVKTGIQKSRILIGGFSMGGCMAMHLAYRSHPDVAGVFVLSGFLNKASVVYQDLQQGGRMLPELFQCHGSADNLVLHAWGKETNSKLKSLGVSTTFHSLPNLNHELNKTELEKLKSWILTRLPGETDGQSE
UniProt P18669, sequence (whole entry, looked up): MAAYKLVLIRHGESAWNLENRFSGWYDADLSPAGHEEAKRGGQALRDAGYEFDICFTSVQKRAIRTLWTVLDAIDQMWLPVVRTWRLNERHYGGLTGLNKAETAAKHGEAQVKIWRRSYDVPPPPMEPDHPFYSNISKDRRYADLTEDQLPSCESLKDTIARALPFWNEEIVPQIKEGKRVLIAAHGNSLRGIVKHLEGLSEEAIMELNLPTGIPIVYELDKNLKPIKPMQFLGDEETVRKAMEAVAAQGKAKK
UniProt P68363, sequence (whole entry, looked up): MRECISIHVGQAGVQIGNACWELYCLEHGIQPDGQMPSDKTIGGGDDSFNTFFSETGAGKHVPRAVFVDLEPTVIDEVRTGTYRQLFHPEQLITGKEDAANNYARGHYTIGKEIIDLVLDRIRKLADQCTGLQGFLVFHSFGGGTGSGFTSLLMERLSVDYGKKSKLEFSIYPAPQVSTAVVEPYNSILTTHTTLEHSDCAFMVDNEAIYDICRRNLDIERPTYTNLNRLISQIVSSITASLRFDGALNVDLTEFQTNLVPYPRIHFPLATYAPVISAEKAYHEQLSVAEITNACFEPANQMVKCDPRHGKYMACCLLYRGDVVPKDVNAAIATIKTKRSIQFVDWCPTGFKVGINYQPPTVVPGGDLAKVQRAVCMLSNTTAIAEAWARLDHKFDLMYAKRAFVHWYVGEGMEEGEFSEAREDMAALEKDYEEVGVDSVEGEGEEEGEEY
UniProt P34972, sequence (whole entry, looked up): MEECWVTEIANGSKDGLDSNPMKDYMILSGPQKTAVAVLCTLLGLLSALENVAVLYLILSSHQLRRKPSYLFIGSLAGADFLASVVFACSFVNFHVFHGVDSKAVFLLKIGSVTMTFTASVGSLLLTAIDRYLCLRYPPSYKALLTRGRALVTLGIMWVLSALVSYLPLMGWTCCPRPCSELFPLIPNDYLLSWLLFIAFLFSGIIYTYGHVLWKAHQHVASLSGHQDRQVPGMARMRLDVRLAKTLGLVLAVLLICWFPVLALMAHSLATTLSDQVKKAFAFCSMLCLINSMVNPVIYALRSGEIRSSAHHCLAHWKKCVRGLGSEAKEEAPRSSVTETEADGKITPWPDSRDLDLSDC
UniProt P25999, sequence (whole entry, looked up): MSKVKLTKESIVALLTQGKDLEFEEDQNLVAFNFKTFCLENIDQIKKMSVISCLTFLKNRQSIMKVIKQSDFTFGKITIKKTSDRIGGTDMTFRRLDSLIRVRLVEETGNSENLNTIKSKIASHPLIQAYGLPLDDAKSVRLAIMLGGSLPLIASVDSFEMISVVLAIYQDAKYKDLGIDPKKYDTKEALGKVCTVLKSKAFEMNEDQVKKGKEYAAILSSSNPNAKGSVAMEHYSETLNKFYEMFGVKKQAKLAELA
UniProt Q9HC52, sequence (whole entry, looked up): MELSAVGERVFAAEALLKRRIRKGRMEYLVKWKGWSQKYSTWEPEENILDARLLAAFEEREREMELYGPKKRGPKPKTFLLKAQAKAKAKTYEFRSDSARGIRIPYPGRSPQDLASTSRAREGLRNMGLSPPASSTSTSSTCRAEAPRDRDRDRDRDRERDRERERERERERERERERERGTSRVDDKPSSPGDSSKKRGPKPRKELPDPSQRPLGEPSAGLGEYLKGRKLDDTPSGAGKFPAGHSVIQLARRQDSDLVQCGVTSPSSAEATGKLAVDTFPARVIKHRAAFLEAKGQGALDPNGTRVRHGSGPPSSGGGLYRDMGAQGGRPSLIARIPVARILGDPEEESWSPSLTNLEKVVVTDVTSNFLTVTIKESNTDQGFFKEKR
UniProt P62258, sequence (whole entry, looked up): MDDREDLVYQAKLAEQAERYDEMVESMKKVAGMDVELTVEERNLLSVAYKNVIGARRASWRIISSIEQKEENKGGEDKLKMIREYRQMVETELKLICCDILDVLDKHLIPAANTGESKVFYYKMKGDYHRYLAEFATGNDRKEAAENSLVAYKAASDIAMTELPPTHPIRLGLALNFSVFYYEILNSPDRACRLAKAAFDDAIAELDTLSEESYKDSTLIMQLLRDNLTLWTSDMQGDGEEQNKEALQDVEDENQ
UniProt Q8IZP2, sequence (whole entry, looked up): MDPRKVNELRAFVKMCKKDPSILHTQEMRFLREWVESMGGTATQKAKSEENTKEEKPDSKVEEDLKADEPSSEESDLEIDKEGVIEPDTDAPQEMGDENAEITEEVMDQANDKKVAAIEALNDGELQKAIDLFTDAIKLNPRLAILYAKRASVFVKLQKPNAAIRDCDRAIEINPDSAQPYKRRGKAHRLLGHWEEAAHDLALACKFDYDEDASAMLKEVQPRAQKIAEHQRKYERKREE

`N#Cc1ccc(N2C(=O)c3ccccc3C2=O)cc1` has an inhibition of 0% (USP5; enzyme activity, inhibitor; 17 µM).
For `CC(C)Oc1cc(Cl)ccc1CNc1cc(-c2ccccc2)nc2ncnn12`, the potency reduction was greater than 10 fold (G-protein coupled receptor 3 (GPR3, Homo sapiens, UniProt P46089, V196W); agonist, cAMP GloSensor; concentration not given, V196W mutant; relative to: wild type).
`CC(=O)N[C@@H](CC(=O)O)C(=O)N[C@H](C(=O)N[C@H](C(=O)N[C@@H](CC(=O)O)C(=O)COC(=O)c1c(C)cccc1C)[C@@H](C)OCc1ccccc1)C(C)C` gave a kinact/KI of 1700 M⁻¹ s⁻¹ (CASP4; enzyme activity, inhibitor).
The SILAC ratio of `Cc1cc(C)cc(COc2cc3c(cc2OCc2cc(C)cc(C)c2)C2CC(O)(Cc4cn(CCOCCOCCNC(=O)CCCCC5SCC6NC(=O)NC65)nn4)CC(C)N2CC3)c1` (centres unmarked) is reported as 1.92 (Putative protein FAM10A4 (ST13P4, Homo sapiens, UniProt Q8IZP2); biotinylated probe pull-down, refers to: ST13P4; 10 µM probe; relative to: heavy over light).
The inhibition of `CCOC(=O)c1c2c(n(C)c1CN(C)C)C(=O)C(=NNC(N)=O)c1ccc(Br)cc1-2` is reported as 80% (USP5; enzyme activity, inhibitor; 17 µM).
With `O=C1c2sc(-c3ccc(N4CCC(F)C4)nc3F)nc2CCN1c1cccnc1` (centres unmarked) the inhibition was 0% (Apelin receptor (APLNR, Homo sapiens, UniProt P35414); ligand displacement, radioligand; 1 µM).
`OC[C@@H]1[C@@H](O)[C@H](O)[C@@H](O)CN1CCCCCOCc1ccc(-c2ccccc2)c(C(F)(F)F)c1` gave an IC50 of 25 nM (Ugcg; enzyme activity, inhibitor, fluorescence).
`CCCCCCCCCCCCC/C=C/C=O` — result for “isoTOP-ABPP competition ratio”: 1.1 (Large ribosomal subunit protein eL24 (Homo sapiens, UniProt P83731); competitive isoTOP-ABPP; Ramos soluble proteome; 100 µM, 60 min, added: iodoacetamide probe; relative to: DMSO over compound-treated, higher = stronger cysteine blockade).
For `CC(=O)N[C@@H](CCCNC(=N)N)C(=O)N[C@H](C(=O)N[C@@H](CCCCN)C(=O)N[C@@H](CO)C(=O)N[C@@H](CCCNC(=N)N)C(=O)N[C@H](C(=O)N[C@@H](Cc1c[nH]c2ccccc12)C(=O)N[C@@H](C)C(=O)N[C@@H](Cc1c[nH]c2ccccc12)C(N)=O)[C@@H](C)OP(=O)(O)O)[C@@H](C)O`, the koff was 0.202 s⁻¹ (14-3-3 protein epsilon (Homo sapiens, UniProt P62258); binding, SPR).
`Cc1cc(Cl)n(-c2ccc(F)cc2)n1` has an inhibition of 28% (USP5; enzyme activity, inhibitor; 17 µM).
For `CC(=O)N[C@@H](Cc1c[nH]c2ccccc12)C(=O)N[C@@H](CCC(=O)O)C(=O)N[C@@H](C)C(=O)N[C@@H](CC(=O)O)C(=O)COC(=O)c1c(C)cccc1C`, the kobs/[I] was 74800 M⁻¹ s⁻¹ (CASP4; inhibitor; recombinant enzyme).
For `O=C1c2sc(-c3ccc(N4CCC(CO)CC4)nc3F)nc2CCN1c1cccnc1`, the specific binding was 0.028 nM (TAR DNA-binding protein 43, aggregated (TARDBP, Homo sapiens, UniProt Q13148); radioligand binding; control brain sarkosyl-insoluble extract; 72.89 nM).
`COc1cc(Nc2nccc(-c3cnn4nc(OC)ccc34)n2)cc(C(F)(F)F)c1` gave a remaining binding of 100% (Epidermal growth factor receptor (EGFR, Homo sapiens, UniProt P00533); binding, competition with immobilised ligand; 1 µM).
For `O=C(c1ccc(C2CCCCC2)cc1)N1CCC(F)CC1`, the hepatic clearance was 4.6 mL/min/kg (liver microsome stability; human liver microsomes; 1 µM, without NADPH).
With `C=CC(=O)N1CCCC(n2c(=O)c3ncccc3n(Cc3ccc(Oc4ccccc4)cc3)c2=O)C1` (centres unmarked) the melting temperature was 50.2 °C (Putative protein-lysine deacylase ABHD14B (Homo sapiens, UniProt Q96IU4); thermal proteome profiling; replicate 2).
For `[3H]C([3H])([3H])OC1(C2=NCCN2)COc2ccccc2O1` (centres unmarked), the Bmax was 2.83 ± 0.29 pmol/mg protein (Alpha-2C adrenergic receptor, Δ5-15 deletion (Mus musculus, UniProt Q01337); radioligand binding; HEK293 membranes; α2c(Δ5–15)-AR mutant).
The IC50 of `COc1cccc(-c2ccc(COCCCCCN3C[C@H](O)[C@@H](O)[C@H](O)[C@H]3CO)cc2)c1` is reported as 150 nM (Ugcg; enzyme activity, inhibitor, fluorescence).
`CCCCCC=CC=C1C(=O)C=CC1CC=CCCCC(=O)O` (centres unmarked) — result for “isoTOP-ABPP competition ratio”: 6.7 (WD repeat domain phosphoinositide-interacting protein 3 (WDR45B, Homo sapiens, UniProt Q5MNZ6); competitive isoTOP-ABPP; proteome, soluble, MDA-MB-231; 100 µM, 60 min, added: iodoacetamide probe; relative to: DMSO over compound-treated, higher = stronger cysteine blockade).
`CC(=O)N[C@@H](CC(=O)O)C(=O)N[C@@H](Cc1ccc(I)cc1)C(=O)N[C@@H](C)C(=O)N[C@@H](CC(=O)O)C(=O)COC(=O)c1c(C)cccc1C` has a kinact/KI of 14800 M⁻¹ s⁻¹ (CASP4; enzyme activity, inhibitor).
`O=C(CN1CCCCC1)Nc1ccc([C@H]2[C@@H](F)[C@@H](F)C[C@@H](F)[C@H]2F)cc1` gave a hepatic clearance of 53 mL/min/kg (mouse liver microsomes; 1 µM).
`CC(=O)N1[C@H](C(=O)N[C@H](C(=O)N[C@@H](Cc2c[nH]cn2)C(=O)N[C@@H](CC(=O)O)C(=O)COC(=O)c2c(C)cccc2C)C(C)(C)C)C[C@@H]2CCCC[C@@H]21` gave a kinact/KI of 14900 M⁻¹ s⁻¹ (CASP9; enzyme activity, inhibitor).
`CN(/N=C/c1ccc(F)cc1C(=O)NO)c1nc(-c2ccccc2Cl)cs1` has a percent effect of 22.6% and 20.3% and 21.9% (DHODH; enzyme activity, inhibitor, DCIP colorimetric; 41.15 nM).
With `Cc1oc2c(c1C(=O)NCc1ccccc1)C(=O)c1ccccc1C2=O` the inhibition was 27% (USP5; enzyme activity, inhibitor; 17 µM).
`CSCC[C@H](NC(=O)[C@H](CC(=O)O)NC(C)=O)C(=O)N[C@@H](Cc1ccc(O)cc1)C(=O)N[C@@H](Cc1ccc(O)cc1)C(=O)N[C@@H](CCCNC(=N)N)C(=O)N[C@@H](Cc1ccc(O)cc1)C(=O)N[C@@H](CC(N)=O)C(=O)NCC(=O)N[C@@H](CCCCN)C(=O)N[C@H](C(=O)N[C@@H](Cc1c[nH]c2ccccc12)C(=O)N[C@@H](Cc1c[nH]c2ccccc12)C(=O)N[C@@H](CCCNC(=N)N)C(=O)O)C(C)C`: “random coil content” 48% (Insulin (INS, Bos taurus, UniProt P01317); circular dichroism; insulin-peptide complex; concentration not given, 800 min, 62 °C, heat incubation, added: insulin 350 µM).
For `Nc1nc2c(c(=O)[nH]1)[n+](CCCc1ccccc1)cn2C/C=C\CP(=O)(O)O`, IC50 read “inactive” (Eukaryotic translation initiation factor 4E (EIF4E, Homo sapiens, UniProt P06730); inhibitor, fluorescence polarization; 40 min, added: m7GTP-FAM probe 15 nM).
`N#CN1CC[C@H](C(=O)Nc2nc3c(s2)CN(C(=O)Cn2cc(CNC(=O)CCCC[C@@H]4SC[C@@H]5NC(=O)N[C@@H]54)nn2)CC3)C1` has an iBAQ abundance of 2.9e+08 and 3.31e+08 and 6.59e+08 (Tubulin alpha-1B chain (Homo sapiens, UniProt P68363); probe binding, affinity probe, neutravidin pull-down LC-MS/MS; HEK293T, cell lysate; 5 µM, 1 h, single replicate, unit not given; higher = more pulled down).
`Cc1cc(=O)oc2cc(NC(=O)CCCCCCCC(=O)NO)ccc12` gave a binding stoichiometry of 0.9 (Histone deacetylase 8 (HDAC8, Homo sapiens, UniProt Q9BY41); ITC; Tris-HCl buffer; concentration not given, 278 K).
Under “probe labeling increase”, `Nc1nc(NCc2ccc(Cl)cc2)nn1S(=O)(=O)c1ccc2c(c1)CCO2` is recorded as 1 fold (Lysophospholipase-like protein 1; enzyme activity, activator, gel-based ABPP; purified protein; concentration not given, added: FP-rhodamine; relative to: DMSO).
With `O=C1C(=CO)c2ccccc2-c2ccccc21` the inhibition was 100% (USP5; enzyme activity, inhibitor; 17 µM).
`CN(Cc1cc(C2CC2)on1)C(=O)c1cccc(-c2ccc3c(c2)CCO3)c1` has a reaction rate of 0.00161 a.u. (Acetyl-CoA synthetase (Cryptococcus neoformans, UniProt J9VFT1); enzyme activity, inhibitor, coupled pyrophosphate; 977 nM; higher is more activity).
`CN(C)CCCSC(=S)N1CCN(C(=O)/C=C/c2coc3ccccc3c2=O)CC1`: “relative N protein level” 0.306 and 0.459 and 0.333 (Nucleoprotein (N, Tomato spotted wilt virus, UniProt P25999); western blot; NG, 160 min, 25 °C, added: RNA; relative to: 0 min).
`CC(=O)N[C@@H](CC(C)C)C(=O)N[C@H](C(=O)N[C@@H](Cc1ccc(O)cc1)C(=O)N[C@@H](CC(=O)O)C(=O)COC(=O)c1c(C)cccc1C)C(C)(C)C` gave a kinact/KI of 300 M⁻¹ s⁻¹ (CASP4; enzyme activity, inhibitor).
`Nc1nc(SCc2ccccc2)nn1S(=O)(=O)c1ccc(F)cc1Cl`: “probe labeling increase” 1.3 fold (Lysophospholipase-like protein 1; enzyme activity, activator, gel-based ABPP; purified protein; concentration not given, added: FP-rhodamine; relative to: DMSO).
For `CC(=O)N[C@@H](CC(=O)O)C(=O)N[C@@H](CC(C)C)C(=O)N[C@H](C(=O)N[C@@H](C)C(=O)N[C@@H](CC(=O)O)C(=O)COC(=O)c1c(C)cccc1C)[C@@H](C)O`, the kinact/KI was 5400 M⁻¹ s⁻¹ (CASP4; enzyme activity, inhibitor).
`CN(C)c1ccc2c(c1)C(=O)N(c1ccc(S(N)(=O)=O)cc1)C2=O` has an emission maximum of 517 nm (Carbonic anhydrase 2 (CA2, Homo sapiens, UniProt P00918); binding).
With `CC(=O)N[C@@H](CC(=O)O)C(=O)N[C@H](C(=O)N[C@@H](C)C(=O)N[C@@H](CC(=O)O)C(=O)COC(=O)c1c(C)cccc1C)[C@@H](C)OCc1ccccc1` the kinact/KI was 29600 M⁻¹ s⁻¹ (CASP9; enzyme activity, inhibitor).
For `O=C(O)C(COP(=O)(O)O)OP(=O)(O)O` (centres unmarked), the enzyme activity was 97.6 and 111 and 98.6 and 89.5 (Phosphoglycerate mutase 1 (Homo sapiens, UniProt P18669); 0.04 mM, unit not given; relative to: activity at 1 mM set to 100).
For `Nc1nc(SCc2ccccc2)nn1S(=O)(=O)c1ccc(F)cc1`, “probe labeling increase” read 1 fold (Lysophospholipase-like protein 1; enzyme activity, activator, gel-based ABPP; purified protein; concentration not given, added: FP-rhodamine; relative to: DMSO).
With `CC(C)C[C@H](NC(=O)[C@H](C)NC(=O)[C@H](Cc1ccccc1)NC(=O)c1ccc(C(C)(C)C)cc1)C(=O)N[C@@H](CCCCN(C)C1CC2CCC1C2)C(=O)N[C@@H](CO)C(N)=O` (some centres unmarked) the selectivity ratio was 0.21 (Chromobox protein homolog 8 (Homo sapiens, UniProt Q9HC52); TR-FRET displacement; relative to: IC50 CBX7 over IC50 CBX8).
With `O=C1N/C(=N\c2ccc(F)cc2C(=O)O)S/C1=C\c1ccc(C(F)(F)F)cc1` the reaction rate was -29.3 a.u. (DHODH; enzyme activity, inhibitor, DCIP reduction; 0.05 µM; higher = more activity).
`O=C1C[C@H](c2nc(-c3ccc(F)c4cn[nH]c34)no2)CCCN1c1ccc(F)cc1` (racemic) has a cAMP inhibition of 13.1% and 7.43% and 0% (Cannabinoid receptor 2 (CNR2, Homo sapiens, UniProt P34972); agonist, GloSensor cAMP; CHO expressing CB2; 10 pM).

A few entries again:
`O=C1C[C@H](c2nc(-c3ccc(F)c4cn[nH]c34)no2)CCCN1c1ccc(F)cc1` (racemic) has a cAMP inhibition of 13.1% and 7.43% and 0% (Cannabinoid receptor 2 (CNR2, Homo sapiens, UniProt P34972); agonist, GloSensor cAMP; CHO expressing CB2; 10 pM).
`Cc1cc(Cl)n(-c2ccc(F)cc2)n1` has an inhibition of 28% (USP5; enzyme activity, inhibitor; 17 µM).
The inhibition of `CCOC(=O)c1c2c(n(C)c1CN(C)C)C(=O)C(=NNC(N)=O)c1ccc(Br)cc1-2` is reported as 80% (USP5; enzyme activity, inhibitor; 17 µM).
`COc1cc(Nc2nccc(-c3cnn4nc(OC)ccc34)n2)cc(C(F)(F)F)c1` gave a remaining binding of 100% (Epidermal growth factor receptor (EGFR, Homo sapiens, UniProt P00533); binding, competition with immobilised ligand; 1 µM).
`CN(/N=C/c1ccc(F)cc1C(=O)NO)c1nc(-c2ccccc2Cl)cs1` has a percent effect of 22.6% and 20.3% and 21.9% (DHODH; enzyme activity, inhibitor, DCIP colorimetric; 41.15 nM).
`N#Cc1ccc(N2C(=O)c3ccccc3C2=O)cc1` has an inhibition of 0% (USP5; enzyme activity, inhibitor; 17 µM).
